Measured values collected from several papers.
Protocols differ between the studies behind these lines. Values joined by “and” are separate records of one study, mostly repeats; a detail may differ.

`CC[C@@H](c1cccc(O)c1)[C@@H](C)CN(C)C`: “membrane potential change” 24.2% and 24.5% and 23.9% and 24.9% and 25.1% and 18.6% (AtT20 cells; somatostatin response, membrane potential dye fluorescence; 30 µM, 0.08333 h, with: somatostatin 100 nM).
For `CCCCCc1cc(O)c2c(c1)OC(C)(C)[C@@H]1CCC(C)=C[C@@H]21`, intracellular pH read “no effect” (human sperm; BCECF; 10 µM).
For `C[C@]12CCC(=O)C=C1CC[C@@H]1[C@@H]2CC[C@@]2(C)[C@H]1CC[C@]2(C)O`, “reversal of trafficking deficit” read -14.7% (primary rat hippocampal/cortical neuron-glia cultures; 1 µM, with: 1 µM α-synuclein oligomers).
The transferrin uptake of `CN(C)CCCN1c2ccccc2Sc2ccc(Cl)cc21` is reported as 92.2% and 89.5% and 83.7% (del45 myoblasts; fluorescence, measured: fluorescent transferrin; concentration not given, 2 h).
For `O=C1NC(=O)C(C2C3=C(CCCC3=O)Oc3ccc([N+](=O)[O-])cc32)C(=O)N1` (centres unmarked), mRNA level read “decreased” (3T3-L1 adipocytes; qPCR, measured: GLUT4; IC20, 14 days; relative to: untreated mature adipocytes).
With `COc1ccc(-n2nc(C(C)=O)s/c2=N\N=C(/C)c2ccc(NC(C)=O)cc2)cc1` the viability was 5.18% (HepG2; 0.625 µM).
Under mRNA level, `CN1C(=O)C(C2C3=C(CC(C)(C)CC3=O)Oc3c(O)cccc32)C(=O)N(C)C1=O` (centres unmarked) is recorded as “increased” (3T3-L1 adipocytes; qPCR, measured: adiponectin; IC20, 14 days; relative to: untreated mature adipocytes).
For `COc1ccc(CCN)cc1OC`, “reversal of trafficking deficit” read -11.4% (primary rat hippocampal/cortical neuron-glia cultures; 1 µM, with: 1 µM α-synuclein oligomers).
